# Assay results collected from several papers.
# Numbered parts are unrelated; each lists some results of a single study. Numbers after ± are the reported error.
# Chain of UniProt Q8NI60 (whole entry, looked up): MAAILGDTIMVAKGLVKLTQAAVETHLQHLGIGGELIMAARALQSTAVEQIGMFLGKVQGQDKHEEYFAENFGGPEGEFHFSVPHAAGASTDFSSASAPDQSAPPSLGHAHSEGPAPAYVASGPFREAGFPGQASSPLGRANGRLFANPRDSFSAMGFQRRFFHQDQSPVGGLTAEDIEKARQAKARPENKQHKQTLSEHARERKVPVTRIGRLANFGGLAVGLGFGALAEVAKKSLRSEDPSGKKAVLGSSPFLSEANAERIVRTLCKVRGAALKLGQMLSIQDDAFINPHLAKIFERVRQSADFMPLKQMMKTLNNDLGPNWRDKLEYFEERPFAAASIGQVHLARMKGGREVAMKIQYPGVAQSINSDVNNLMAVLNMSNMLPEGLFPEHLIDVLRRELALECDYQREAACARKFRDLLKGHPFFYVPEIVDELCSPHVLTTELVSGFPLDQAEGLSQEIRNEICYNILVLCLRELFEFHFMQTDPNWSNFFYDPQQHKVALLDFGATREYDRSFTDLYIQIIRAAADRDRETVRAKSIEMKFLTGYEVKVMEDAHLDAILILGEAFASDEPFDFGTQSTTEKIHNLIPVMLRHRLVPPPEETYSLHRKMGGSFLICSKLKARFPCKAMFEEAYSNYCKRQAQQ
# Chain of UniProt Q8TBX8 (whole entry, looked up): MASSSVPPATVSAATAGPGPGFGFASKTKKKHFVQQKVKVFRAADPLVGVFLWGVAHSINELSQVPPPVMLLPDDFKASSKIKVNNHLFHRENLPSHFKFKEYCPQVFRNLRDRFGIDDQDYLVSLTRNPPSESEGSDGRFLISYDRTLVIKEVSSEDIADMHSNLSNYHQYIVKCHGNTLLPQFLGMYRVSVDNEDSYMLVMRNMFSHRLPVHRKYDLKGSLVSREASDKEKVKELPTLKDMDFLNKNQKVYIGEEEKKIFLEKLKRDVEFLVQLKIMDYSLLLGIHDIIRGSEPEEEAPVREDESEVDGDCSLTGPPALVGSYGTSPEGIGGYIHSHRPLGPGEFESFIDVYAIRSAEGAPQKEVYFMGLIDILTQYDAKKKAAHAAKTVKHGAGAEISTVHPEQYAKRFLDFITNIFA
# Chain of UniProt Q9BRS2 (whole entry, looked up): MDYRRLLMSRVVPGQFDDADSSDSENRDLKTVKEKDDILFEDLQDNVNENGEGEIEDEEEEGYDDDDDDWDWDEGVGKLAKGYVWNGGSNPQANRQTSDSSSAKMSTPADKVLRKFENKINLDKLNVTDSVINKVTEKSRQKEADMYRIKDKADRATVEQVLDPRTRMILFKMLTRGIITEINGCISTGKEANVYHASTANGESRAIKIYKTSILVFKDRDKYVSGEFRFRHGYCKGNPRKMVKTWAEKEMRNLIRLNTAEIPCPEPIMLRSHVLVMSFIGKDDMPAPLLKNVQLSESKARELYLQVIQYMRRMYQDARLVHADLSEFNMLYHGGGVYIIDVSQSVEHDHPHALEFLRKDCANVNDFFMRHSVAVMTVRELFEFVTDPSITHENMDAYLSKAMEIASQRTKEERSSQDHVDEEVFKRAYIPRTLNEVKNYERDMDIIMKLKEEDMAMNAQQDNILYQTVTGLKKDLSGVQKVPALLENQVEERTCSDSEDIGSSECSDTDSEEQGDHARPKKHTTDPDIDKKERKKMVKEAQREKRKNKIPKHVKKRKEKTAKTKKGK
# Chain of UniProt O00444 (whole entry, looked up): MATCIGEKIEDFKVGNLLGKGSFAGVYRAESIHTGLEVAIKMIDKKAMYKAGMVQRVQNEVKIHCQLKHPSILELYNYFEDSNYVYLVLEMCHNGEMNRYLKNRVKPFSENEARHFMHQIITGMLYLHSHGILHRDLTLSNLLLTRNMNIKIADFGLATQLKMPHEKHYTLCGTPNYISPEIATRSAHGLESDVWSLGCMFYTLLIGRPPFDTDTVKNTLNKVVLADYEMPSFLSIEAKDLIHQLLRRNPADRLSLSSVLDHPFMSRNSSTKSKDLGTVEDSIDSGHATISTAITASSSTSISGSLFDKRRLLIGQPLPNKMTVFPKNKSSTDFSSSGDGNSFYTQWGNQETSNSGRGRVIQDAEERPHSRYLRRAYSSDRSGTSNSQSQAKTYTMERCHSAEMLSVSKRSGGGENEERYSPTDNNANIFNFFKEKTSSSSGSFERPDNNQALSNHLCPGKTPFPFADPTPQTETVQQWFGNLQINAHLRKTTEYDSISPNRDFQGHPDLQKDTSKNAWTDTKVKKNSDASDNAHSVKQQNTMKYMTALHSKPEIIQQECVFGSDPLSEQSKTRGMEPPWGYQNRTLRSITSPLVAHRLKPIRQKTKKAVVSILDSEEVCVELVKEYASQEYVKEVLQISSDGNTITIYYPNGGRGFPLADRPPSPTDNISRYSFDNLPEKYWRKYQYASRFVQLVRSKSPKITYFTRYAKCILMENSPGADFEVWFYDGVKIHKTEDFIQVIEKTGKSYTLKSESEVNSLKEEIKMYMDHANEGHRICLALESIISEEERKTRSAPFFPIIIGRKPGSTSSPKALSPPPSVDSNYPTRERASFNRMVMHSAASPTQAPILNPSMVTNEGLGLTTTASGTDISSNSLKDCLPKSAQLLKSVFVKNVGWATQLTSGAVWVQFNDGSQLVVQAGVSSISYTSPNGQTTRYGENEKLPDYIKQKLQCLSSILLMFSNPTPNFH
# Chain of UniProt Q8IU85 (whole entry, looked up): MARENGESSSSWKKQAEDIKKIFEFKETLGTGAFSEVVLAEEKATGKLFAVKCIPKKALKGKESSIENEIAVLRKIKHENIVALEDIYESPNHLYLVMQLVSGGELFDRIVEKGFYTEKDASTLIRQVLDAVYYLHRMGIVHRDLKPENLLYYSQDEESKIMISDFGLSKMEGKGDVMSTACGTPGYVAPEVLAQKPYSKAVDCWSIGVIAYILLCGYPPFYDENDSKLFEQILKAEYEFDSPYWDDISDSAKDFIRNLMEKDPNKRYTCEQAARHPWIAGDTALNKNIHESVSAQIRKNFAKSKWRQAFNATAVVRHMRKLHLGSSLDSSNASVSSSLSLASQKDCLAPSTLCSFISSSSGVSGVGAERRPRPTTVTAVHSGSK
# Chain of UniProt P42685 (whole entry, looked up): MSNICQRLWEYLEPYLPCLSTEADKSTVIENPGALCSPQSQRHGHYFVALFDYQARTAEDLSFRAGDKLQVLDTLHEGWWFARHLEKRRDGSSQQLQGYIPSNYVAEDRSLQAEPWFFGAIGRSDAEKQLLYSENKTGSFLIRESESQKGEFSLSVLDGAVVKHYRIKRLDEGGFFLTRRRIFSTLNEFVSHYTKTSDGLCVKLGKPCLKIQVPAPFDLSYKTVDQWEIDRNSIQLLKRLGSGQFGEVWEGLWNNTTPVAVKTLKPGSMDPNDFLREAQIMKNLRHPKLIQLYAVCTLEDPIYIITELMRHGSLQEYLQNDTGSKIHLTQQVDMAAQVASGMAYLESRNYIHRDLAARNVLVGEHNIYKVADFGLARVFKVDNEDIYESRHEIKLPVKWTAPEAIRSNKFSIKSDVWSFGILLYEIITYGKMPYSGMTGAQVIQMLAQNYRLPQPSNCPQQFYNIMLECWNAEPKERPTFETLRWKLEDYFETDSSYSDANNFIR
# Chain of UniProt Q8IYT8 (whole entry, looked up): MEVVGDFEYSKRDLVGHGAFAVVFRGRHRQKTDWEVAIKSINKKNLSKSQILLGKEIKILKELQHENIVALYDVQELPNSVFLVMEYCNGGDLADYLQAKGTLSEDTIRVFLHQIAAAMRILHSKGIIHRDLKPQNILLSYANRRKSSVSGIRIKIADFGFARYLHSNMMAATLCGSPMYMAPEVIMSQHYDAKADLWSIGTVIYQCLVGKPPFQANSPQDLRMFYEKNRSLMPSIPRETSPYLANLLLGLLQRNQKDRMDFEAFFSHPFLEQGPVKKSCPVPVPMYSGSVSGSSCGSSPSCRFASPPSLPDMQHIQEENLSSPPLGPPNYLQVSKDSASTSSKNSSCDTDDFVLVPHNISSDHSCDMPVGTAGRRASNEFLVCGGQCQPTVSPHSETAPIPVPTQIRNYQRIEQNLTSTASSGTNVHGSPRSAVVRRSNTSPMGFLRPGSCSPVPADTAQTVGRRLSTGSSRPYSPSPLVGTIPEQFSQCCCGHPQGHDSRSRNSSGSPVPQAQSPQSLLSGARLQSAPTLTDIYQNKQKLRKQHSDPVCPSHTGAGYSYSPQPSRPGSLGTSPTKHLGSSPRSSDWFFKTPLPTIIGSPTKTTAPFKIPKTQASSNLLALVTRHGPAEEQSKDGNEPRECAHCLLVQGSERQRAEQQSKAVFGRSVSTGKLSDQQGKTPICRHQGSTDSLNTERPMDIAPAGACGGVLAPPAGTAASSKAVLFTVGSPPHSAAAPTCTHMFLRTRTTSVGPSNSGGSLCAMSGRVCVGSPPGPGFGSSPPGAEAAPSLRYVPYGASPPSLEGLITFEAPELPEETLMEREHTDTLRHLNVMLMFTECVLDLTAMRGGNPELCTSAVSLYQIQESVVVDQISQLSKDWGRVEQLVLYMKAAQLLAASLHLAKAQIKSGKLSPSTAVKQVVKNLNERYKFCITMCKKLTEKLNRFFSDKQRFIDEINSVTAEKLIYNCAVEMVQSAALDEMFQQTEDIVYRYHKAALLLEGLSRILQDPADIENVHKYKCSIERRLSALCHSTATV
# Chain of UniProt Q9NY57 (whole entry, looked up): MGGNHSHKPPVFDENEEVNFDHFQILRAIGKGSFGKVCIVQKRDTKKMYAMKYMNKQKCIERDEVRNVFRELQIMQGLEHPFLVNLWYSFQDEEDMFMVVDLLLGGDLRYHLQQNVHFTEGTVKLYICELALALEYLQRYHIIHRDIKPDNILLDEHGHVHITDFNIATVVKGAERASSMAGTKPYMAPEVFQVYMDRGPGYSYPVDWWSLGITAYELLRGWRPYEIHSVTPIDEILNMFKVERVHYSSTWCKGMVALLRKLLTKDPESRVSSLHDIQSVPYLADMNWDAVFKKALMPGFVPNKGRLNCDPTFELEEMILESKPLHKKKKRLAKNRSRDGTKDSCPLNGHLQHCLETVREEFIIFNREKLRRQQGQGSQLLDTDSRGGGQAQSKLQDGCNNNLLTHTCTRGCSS

# Set 1
# Compound: COc1cc(C(=O)N2CCC(N3CCN(C)CC3)CC2)ccc1Nc1ncc2c(n1)N(C)c1ccccc1C(=O)N2C
# Effect on: kinase activity
target,setting,remaining activity
ERK2,10 µM,85 ± 1%
AMPK,1 µM,70 ± 7%
PAK6,10 µM,89 ± 3%
HIPK3,1 µM,90 ± 3%
MARK1,10 µM,93 ± 2%

# Set 2
# Organism: Sarcocystis neurona
# Effect on: parasite growth
# Tested at: 10 µM
# Notes: first screen
# Baseline: untreated
SMILES,log2 fold change
CC(=O)CCCCn1cnc2c1c(=O)n(C)c(=O)n2C,0.36
CC(C)(C)NCC(O)c1ccc(O)c(CO)c1.CC(C)(C)NCC(O)c1ccc(O)c(CO)c1.O=S(=O)(O)O (stereo not shown),0.12
NS(=O)(=O)c1cc2c(cc1C(F)(F)F)NC(Cc1ccccc1)NS2(=O)=O (stereo not shown),0.12
CC(C)[N+](C)(CCOC(=O)C1c2ccccc2Oc2ccccc21)C(C)C.[Br-],0.26
CN1CCN(c2c(F)cc3c(=O)c(C(=O)O)cn4c3c2SCC4)CC1.Cl,0.28
C[N+]1(C)CCC(OC(=O)C(O)(c2ccccc2)C2CCCC2)C1.[Br-] (stereo not shown),-0.1

# Set 3
# Compound: CN(C)CC#Cc1ccc(OCCCc2sc(N3CCc4cccc(C(=O)Nc5nc6ccccc6s5)c4C3)nc2C(=O)O)c(F)c1
# Effect on: cell-free assay
# Technique: competition with immobilised ligand
# Tested at: 1 µM
target,remaining binding
"EIF2AK1 (Homo sapiens, UniProt Q9BQI3)",98%
"CAMK1D (Homo sapiens, UniProt Q8IU85)",90%
"ULK2 (Homo sapiens, UniProt Q8IYT8)",100%
"DCLK1 (Homo sapiens, UniProt O15075)",72%
"MAP3K20 (Homo sapiens, UniProt Q9NYL2)",100%
"COQ8A (Homo sapiens, UniProt Q8NI60)",100%
"PLK4 (Homo sapiens, UniProt O00444)",77%
"Insulin receptor (INSR, Homo sapiens, UniProt P06213)",92%
"MAP3K12 (Homo sapiens, UniProt Q12852)",100%
"ALK (Homo sapiens, UniProt Q9UM73, L1196M)",100%
"WNK1 (Homo sapiens, UniProt Q9H4A3)",90%
"PIP4K2C (Homo sapiens, UniProt Q8TBX8)",100%
"RIOK1 (Homo sapiens, UniProt Q9BRS2)",91%
"STK32B (Homo sapiens, UniProt Q9NY57)",95%
"FLT3 (Homo sapiens, UniProt P36888, F691L/ITD)",100%
"KIT (Homo sapiens, UniProt P10721, V559D)",96%
"PRKCI (Homo sapiens, UniProt P41743)",100%
"FRK (Homo sapiens, UniProt P42685)",96%

# Set 4
# Species: mouse
# Sample: microsomes or S9
# Tested at: 2 µM
# Time: 0.5 h
Structure (SMILES),remaining compound
Cc1noc(C23CC(CN2C(=O)Nc2cc(C)c4cn[nH]c4c2)C3)n1,52.3%
COc1cc(OC)cc(-n2c3c(c4nc(OC)ccc42)C(C)CCC3)c1 (stereo not shown),52%
CCc1c(C)sc(NC(=O)CN2CCN(C(=O)C3CCCO3)CC2)c1C(=O)OC (stereo not shown),0.00886%
CC(C)C(=O)NC[C@@H]1C[C@H](F)CN1C(=O)CS(C)(=O)=O,48.8%
NC(=O)CCN(Cc1ccccc1)C(=O)c1ccccc1OCc1ccccc1,0.269%
Cc1cn(S(=O)(=O)c2ccccc2)cc1C(=O)CC(C)C[N+](=O)[O-] (stereo not shown),3.13%
COCC1COc2cc3ncnc(Nc4ccc(Br)cc4F)c3cc2O1 (stereo not shown),0.536%
Cn1c(=O)c2c(-c3ccncc3)c(Nc3ccccc3)oc2c2ccccc21,55.8%

# A few entries again (set 3):
target,remaining binding
"EIF2AK1 (Homo sapiens, UniProt Q9BQI3)",98%
"CAMK1D (Homo sapiens, UniProt Q8IU85)",90%
"ULK2 (Homo sapiens, UniProt Q8IYT8)",100%
"DCLK1 (Homo sapiens, UniProt O15075)",72%
"MAP3K20 (Homo sapiens, UniProt Q9NYL2)",100%
"COQ8A (Homo sapiens, UniProt Q8NI60)",100%
